Measurements collected from several papers.
Protocols differ between the studies behind these lines. Numbers after ± are the reported error.
GLP1R: Glucagon-like peptide 1 receptor (GLP1R, Homo sapiens, UniProt P43220)
AHR: Aryl hydrocarbon receptor (AHR, Homo sapiens, UniProt P35869)
GPR17 long isoform: Uracil nucleotide/cysteinyl leukotriene receptor, long isoform (GPR17, Homo sapiens, UniProt Q13304)
KCNT1: Potassium channel subfamily T member 1 (KCNT1, Homo sapiens, UniProt Q5JUK3)

By UniProt entry, the sequences of proteins in these tests, tags left out. Residues count along the entry.
UniProt P43220, whole entry, looked up: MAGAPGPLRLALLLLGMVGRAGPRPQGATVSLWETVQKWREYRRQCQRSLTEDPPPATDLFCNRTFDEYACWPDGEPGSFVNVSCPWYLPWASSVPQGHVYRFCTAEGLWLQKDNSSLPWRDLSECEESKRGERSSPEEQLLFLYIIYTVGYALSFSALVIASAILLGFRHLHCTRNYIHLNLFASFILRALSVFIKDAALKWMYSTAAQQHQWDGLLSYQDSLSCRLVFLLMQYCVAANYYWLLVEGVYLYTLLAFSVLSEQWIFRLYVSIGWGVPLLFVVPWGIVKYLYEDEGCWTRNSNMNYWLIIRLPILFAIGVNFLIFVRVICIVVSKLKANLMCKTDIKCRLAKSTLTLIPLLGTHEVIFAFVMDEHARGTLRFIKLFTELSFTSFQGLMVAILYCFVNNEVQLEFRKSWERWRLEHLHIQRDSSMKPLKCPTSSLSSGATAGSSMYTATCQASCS
UniProt P43220, 24-463 limits assumed: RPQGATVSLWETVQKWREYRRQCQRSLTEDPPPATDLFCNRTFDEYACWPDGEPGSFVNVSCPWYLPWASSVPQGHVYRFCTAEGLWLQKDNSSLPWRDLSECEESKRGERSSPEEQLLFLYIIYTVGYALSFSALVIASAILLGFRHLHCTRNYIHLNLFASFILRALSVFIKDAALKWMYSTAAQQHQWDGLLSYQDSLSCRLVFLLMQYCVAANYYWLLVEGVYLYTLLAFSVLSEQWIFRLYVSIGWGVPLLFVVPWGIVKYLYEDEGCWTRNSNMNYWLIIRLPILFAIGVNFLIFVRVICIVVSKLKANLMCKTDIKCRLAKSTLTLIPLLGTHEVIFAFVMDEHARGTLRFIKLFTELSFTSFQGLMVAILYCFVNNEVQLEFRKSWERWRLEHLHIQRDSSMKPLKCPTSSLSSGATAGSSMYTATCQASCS
UniProt P35869, whole entry, looked up: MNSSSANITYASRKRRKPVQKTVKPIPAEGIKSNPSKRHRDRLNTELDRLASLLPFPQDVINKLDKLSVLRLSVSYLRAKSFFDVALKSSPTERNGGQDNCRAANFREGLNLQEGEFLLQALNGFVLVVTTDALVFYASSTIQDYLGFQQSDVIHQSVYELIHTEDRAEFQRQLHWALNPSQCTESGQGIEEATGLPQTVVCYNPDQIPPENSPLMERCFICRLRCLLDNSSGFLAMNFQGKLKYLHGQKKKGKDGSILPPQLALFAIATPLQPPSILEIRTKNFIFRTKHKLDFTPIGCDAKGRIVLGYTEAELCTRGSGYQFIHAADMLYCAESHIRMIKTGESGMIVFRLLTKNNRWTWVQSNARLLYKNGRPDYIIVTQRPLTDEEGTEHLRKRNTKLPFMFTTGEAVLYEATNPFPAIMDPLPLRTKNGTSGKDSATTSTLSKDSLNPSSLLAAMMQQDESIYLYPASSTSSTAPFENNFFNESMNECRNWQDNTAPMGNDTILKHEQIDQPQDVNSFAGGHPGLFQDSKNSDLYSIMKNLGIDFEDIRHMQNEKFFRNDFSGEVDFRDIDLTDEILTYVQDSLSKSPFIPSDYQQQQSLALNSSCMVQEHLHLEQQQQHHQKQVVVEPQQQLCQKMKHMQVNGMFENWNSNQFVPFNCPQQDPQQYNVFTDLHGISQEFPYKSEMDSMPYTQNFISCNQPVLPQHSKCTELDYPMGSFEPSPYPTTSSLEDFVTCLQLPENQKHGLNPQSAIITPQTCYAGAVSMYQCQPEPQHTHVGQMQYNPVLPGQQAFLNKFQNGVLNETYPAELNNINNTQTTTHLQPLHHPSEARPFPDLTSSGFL
UniProt Q13304, whole entry: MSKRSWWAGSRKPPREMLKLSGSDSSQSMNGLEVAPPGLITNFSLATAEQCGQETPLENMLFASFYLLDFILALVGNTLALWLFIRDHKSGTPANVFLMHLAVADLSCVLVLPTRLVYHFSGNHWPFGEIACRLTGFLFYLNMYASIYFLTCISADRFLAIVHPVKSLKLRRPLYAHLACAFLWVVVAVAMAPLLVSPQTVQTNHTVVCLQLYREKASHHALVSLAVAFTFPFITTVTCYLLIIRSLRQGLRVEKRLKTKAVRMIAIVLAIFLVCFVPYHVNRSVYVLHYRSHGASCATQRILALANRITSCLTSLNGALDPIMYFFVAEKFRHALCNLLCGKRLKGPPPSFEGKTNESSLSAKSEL
UniProt Q5JUK3, whole entry: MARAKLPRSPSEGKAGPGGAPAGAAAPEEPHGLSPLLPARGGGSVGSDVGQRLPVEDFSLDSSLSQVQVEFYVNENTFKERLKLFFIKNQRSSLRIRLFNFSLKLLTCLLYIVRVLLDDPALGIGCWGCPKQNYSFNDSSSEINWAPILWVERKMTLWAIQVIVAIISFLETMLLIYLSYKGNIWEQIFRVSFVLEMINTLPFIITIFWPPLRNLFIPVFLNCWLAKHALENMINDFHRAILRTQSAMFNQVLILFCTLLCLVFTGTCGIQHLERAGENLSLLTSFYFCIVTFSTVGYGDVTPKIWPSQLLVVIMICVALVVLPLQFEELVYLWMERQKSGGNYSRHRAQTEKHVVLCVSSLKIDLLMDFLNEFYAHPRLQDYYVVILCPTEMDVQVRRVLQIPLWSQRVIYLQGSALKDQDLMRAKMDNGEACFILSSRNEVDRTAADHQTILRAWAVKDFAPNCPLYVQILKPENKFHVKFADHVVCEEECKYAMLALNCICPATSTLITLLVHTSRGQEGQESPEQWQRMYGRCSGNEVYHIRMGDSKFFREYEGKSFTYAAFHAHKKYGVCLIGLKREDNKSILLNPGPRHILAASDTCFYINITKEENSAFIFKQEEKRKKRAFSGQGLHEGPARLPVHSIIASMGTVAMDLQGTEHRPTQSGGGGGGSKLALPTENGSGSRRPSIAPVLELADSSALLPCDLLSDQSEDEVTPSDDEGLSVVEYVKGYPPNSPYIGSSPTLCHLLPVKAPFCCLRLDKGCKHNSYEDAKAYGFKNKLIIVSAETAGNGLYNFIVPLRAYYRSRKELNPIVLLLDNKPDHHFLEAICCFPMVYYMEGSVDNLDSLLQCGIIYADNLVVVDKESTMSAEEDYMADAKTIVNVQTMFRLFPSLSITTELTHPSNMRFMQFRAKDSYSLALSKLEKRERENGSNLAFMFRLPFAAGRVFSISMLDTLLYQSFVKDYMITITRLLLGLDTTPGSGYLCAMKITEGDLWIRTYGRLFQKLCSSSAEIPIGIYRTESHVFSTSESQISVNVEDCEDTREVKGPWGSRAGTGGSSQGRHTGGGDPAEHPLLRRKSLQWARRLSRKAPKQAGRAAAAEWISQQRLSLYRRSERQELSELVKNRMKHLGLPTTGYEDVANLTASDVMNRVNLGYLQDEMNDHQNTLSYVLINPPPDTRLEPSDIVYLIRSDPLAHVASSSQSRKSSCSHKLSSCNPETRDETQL
UniProt P47872, 23-440 limits assumed: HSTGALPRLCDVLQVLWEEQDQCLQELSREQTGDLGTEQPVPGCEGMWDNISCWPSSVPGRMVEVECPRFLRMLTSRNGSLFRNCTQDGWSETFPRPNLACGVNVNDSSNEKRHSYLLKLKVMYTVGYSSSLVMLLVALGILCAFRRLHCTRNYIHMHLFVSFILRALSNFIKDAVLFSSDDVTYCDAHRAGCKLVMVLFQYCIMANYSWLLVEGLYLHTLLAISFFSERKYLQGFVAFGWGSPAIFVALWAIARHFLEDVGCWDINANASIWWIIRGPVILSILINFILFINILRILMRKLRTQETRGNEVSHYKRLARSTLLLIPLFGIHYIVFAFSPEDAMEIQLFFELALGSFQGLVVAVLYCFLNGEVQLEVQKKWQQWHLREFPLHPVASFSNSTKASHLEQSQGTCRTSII

Structure (SMILES) = Cc1[nH]c2cc(Cl)cc(Cl)c2c1CCn1cc(CNC(N)=O)nn1; target = GLP1R; test = cAMP accumulation, positive allosteric modulator, HTRF; setting = 0.6 µM, purified compound, added: GLP-1(9-36) at EC20; scale = relative to: BETP; Emax = 105 ± 2%
Structure (SMILES) = O=C(OC1CCCCC1)c1cccc(C(=O)c2c[nH]c3ccccc23)n1; target = AHR; test = reporter gene, agonist; scale = relative to: ITE; Emax = 56 ± 1%
Structure (SMILES) = Cc1[nH]c2cc(Cl)cc(Cl)c2c1CCn1cc(CN2CCS(=O)(=O)CC2)nn1; target = GLP1R; test = cAMP accumulation, positive allosteric modulator, HTRF; setting = 0.6 µM, purified compound, added: GLP-1(9-36) at EC20; scale = relative to: BETP; Emax = 101 ± 3%
Structure (SMILES) = COc1cc(C(=O)c2c[nH]c3ccccc23)ccn1; target = AHR; test = reporter gene, agonist; scale = relative to: ITE; Emax = 66 ± 7%
Structure (SMILES) = O=C(O)CCNC(=O)c1ccc(NCc2cn(CCc3ccc4ccccc4c3)nn2)cc1; target = GLP1R; test = cAMP accumulation, positive allosteric modulator, HTRF; setting = 0.6 µM, added: GLP-1(9-36) at EC20; scale = relative to: BETP; Emax = 77%
Structure (SMILES) = Cc1ccc(C(NS(=O)(=O)c2cccs2)C(=O)Nc2ccc(Cl)cc2)cc1 (centres unmarked); target = GPR17 long isoform; test = calcium mobilization, antagonist; test system = 1321N1 stably expressing GPR17; setting = fitted at highest concentration; scale = higher = stronger inhibition; Emax = 99.2 ± 3.09%
Structure (SMILES) = COc1cnc(C(=O)c2c[nH]c3ccccc23)cn1; target = AHR; test = reporter gene, agonist; scale = relative to: ITE; Emax = 30 ± 2%
Structure (SMILES) = Cc1ccc2ncn(CC3CCN(S(=O)(=O)c4cccc(C(F)(F)F)c4)CC3)c2c1; target = KCNT1; test = thallium flux, activator; test system = HEK293 expressing KCNT1; setting = 30 µM; scale = relative to: loxapine maximal response; Emax = 67%
Structure (SMILES) = O=C(Nc1ccc(Cl)cc1)C(NS(=O)(=O)c1cccs1)c1ccc(-c2ccccc2)cc1 (centres unmarked); target = GPR17 long isoform; test = calcium mobilization, antagonist; test system = 1321N1 stably expressing GPR17; setting = fitted at highest concentration; scale = higher = stronger inhibition; Emax = 91.9 ± 4.8%
Structure (SMILES) = Cc1cccc2ncn(CC3CCN(S(=O)(=O)c4cccc(C(F)(F)F)c4)CC3)c12; target = KCNT1; test = thallium flux, activator; test system = HEK293 expressing KCNT1; setting = 30 µM; scale = relative to: loxapine maximal response; Emax = 30%
Structure (SMILES) = O=C(Nc1ccc(Cl)cc1)C(NS(=O)(=O)c1ccccc1)c1ccccc1 (centres unmarked); target = GPR17 long isoform; test = calcium mobilization, antagonist; test system = 1321N1 stably expressing GPR17; setting = fitted at highest concentration; scale = higher = stronger inhibition; Emax = 104 ± 4.46%
Structure (SMILES) = Cc1[nH]c2cc(Cl)cc(Cl)c2c1CCn1cc(CCCC#N)nn1; target = GLP1R; test = cAMP accumulation, positive allosteric modulator, HTRF; setting = 0.6 µM, crude reaction product, added: GLP-1(9-36) at EC20; scale = relative to: BETP; Emax = 96.4%
Structure (SMILES) = O=S(=O)(c1cccc(C(F)(F)F)c1)N1CCC(Cn2cnc3ccccc32)CC1; target = KCNT1; test = thallium flux, activator; test system = HEK293 expressing KCNT1; setting = 30 µM; scale = relative to: loxapine maximal response; Emax = 86%
Structure (SMILES) = CC(C)(Cn1cc(-c2ccc(S(C)(=O)=O)cc2)nn1)c1c[nH]c2ccccc12; target = GLP1R; test = cAMP accumulation, positive allosteric modulator, HTRF; setting = 0.6 µM, crude reaction product, added: GLP-1(9-36) at EC20; scale = relative to: BETP; Emax = 88.7%
Structure (SMILES) = COc1cccc(C(=O)c2c[nH]c3ccccc23)n1; target = AHR; test = reporter gene, agonist; scale = relative to: ITE; Emax = 48 ± 3%
Structure (SMILES) = Cc1[nH]c2cc(Cl)cc(Cl)c2c1CCn1cc(C2(O)COC2)nn1; target = GLP1R; test = cAMP accumulation, positive allosteric modulator, HTRF; setting = 0.6 µM, crude reaction product, added: GLP-1(9-36) at EC20; scale = relative to: BETP; Emax = 94.8%
Structure (SMILES) = COc1cccc2ncn(CC3CCN(S(=O)(=O)c4cccc(C(F)(F)F)c4)CC3)c12; target = KCNT1; test = thallium flux, activator; test system = HEK293 expressing KCNT1; setting = 30 µM; scale = relative to: loxapine maximal response; Emax = 74%
Structure (SMILES) = CC(C)(Cn1cc(CN[C@@H]2CCc3ccccc32)nn1)c1c[nH]c2ccccc12; target = GLP1R; test = cAMP accumulation, positive allosteric modulator, HTRF; setting = 0.6 µM, purified compound, added: GLP-1(9-36) at EC20; scale = relative to: BETP; Emax = 108%
Structure (SMILES) = O=C(Nc1ccc(Cl)cc1)C(NS(=O)(=O)c1cccc(C(F)(F)F)c1)c1ccccc1 (centres unmarked); target = GPR17 long isoform; test = calcium mobilization, antagonist; test system = 1321N1 stably expressing GPR17; setting = fitted at highest concentration; scale = higher = stronger inhibition; Emax = 87.5 ± 12.7%
Structure (SMILES) = Cc1ccc2c(c1)ncn2CC1CCN(S(=O)(=O)c2cccc(C(F)(F)F)c2)CC1; target = KCNT1; test = thallium flux, activator; test system = HEK293 expressing KCNT1; setting = 30 µM; scale = relative to: loxapine maximal response; Emax = 52%
Structure (SMILES) = O=C(Nc1ccc(Cl)cc1)C(NS(=O)(=O)c1cccs1)c1ccccc1F (centres unmarked); target = GPR17 long isoform; test = calcium mobilization, antagonist; test system = 1321N1 stably expressing GPR17; setting = fitted at highest concentration; scale = higher = stronger inhibition; Emax = 78.8 ± 2.42%
Structure (SMILES) = CCCC(O)c1cn(CCc2c(C)[nH]c3cc(Cl)cc(Cl)c23)nn1 (centres unmarked); target = GLP1R; test = cAMP accumulation, positive allosteric modulator, HTRF; setting = 0.6 µM, crude reaction product, added: GLP-1(9-36) at EC20; scale = relative to: BETP; Emax = 92.5%
Structure (SMILES) = COc1ccccc1-c1cc(C(F)(F)F)nc(S(C)(=O)=O)n1; target = GLP1R; test = cAMP accumulation, positive allosteric modulator; test system = HEK293T overexpressing target; setting = added: GLP-1 at EC20; Emax = 71 ± 15%
Structure (SMILES) = O=C(Nc1ccc(Cl)cc1)C(NS(=O)(=O)c1cccs1)c1ccc(Cl)cc1 (centres unmarked); target = GPR17 long isoform; test = calcium mobilization, antagonist; test system = 1321N1 stably expressing GPR17; setting = fitted at highest concentration; scale = higher = stronger inhibition; Emax = 83.4 ± 3.74%
Structure (SMILES) = CCS(=O)(=O)c1nc(-c2ccc(F)cc2)cc(C(F)F)n1; target = Secretin receptor (SCTR, Homo sapiens, UniProt P47872); test = cAMP accumulation, positive allosteric modulator; test system = CHO-K1 overexpressing target; setting = added: secretin-family peptide mix at EC10-EC20; Emax = no effect
Structure (SMILES) = CCOC(=O)c1cccc(C(NS(=O)(=O)c2cccs2)C(=O)Nc2ccc(Cl)cc2)c1 (centres unmarked); target = GPR17 long isoform; test = calcium mobilization, antagonist; test system = 1321N1 stably expressing GPR17; setting = fitted at highest concentration; scale = higher = stronger inhibition; Emax = 99.1 ± 7.63%
Structure (SMILES) = COc1ccccc1-c1cc(C(F)(F)F)nc(S(=O)(=O)CCCC(=O)O)n1; target = GLP1R; test = cAMP accumulation, agonist; test system = HEK293T overexpressing target; setting = no peptide ligand; Emax = 26 ± 0.1%
Structure (SMILES) = O=S(=O)(c1cccc(C(F)(F)F)c1)N1CCC(Cn2cnc3cc(C(F)(F)F)ccc32)CC1; target = KCNT1; test = thallium flux, activator; test system = HEK293 expressing KCNT1; setting = 30 µM; scale = relative to: loxapine maximal response; Emax = < 10%
Structure (SMILES) = O=C(Nc1ccc(Br)c(F)c1)C(NS(=O)(=O)c1cccs1)c1ccccc1 (centres unmarked); target = GPR17 long isoform; test = calcium mobilization, antagonist; test system = 1321N1 stably expressing GPR17; setting = fitted at highest concentration; scale = higher = stronger inhibition; Emax = 75.8 ± 6.38%

Excerpt of the above:
Structure (SMILES) = CC(C)(Cn1cc(CN[C@@H]2CCc3ccccc32)nn1)c1c[nH]c2ccccc12; target = GLP1R; test = cAMP accumulation, positive allosteric modulator, HTRF; setting = 0.6 µM, purified compound, added: GLP-1(9-36) at EC20; scale = relative to: BETP; Emax = 108%
Structure (SMILES) = O=C(Nc1ccc(Cl)cc1)C(NS(=O)(=O)c1cccc(C(F)(F)F)c1)c1ccccc1 (centres unmarked); target = GPR17 long isoform; test = calcium mobilization, antagonist; test system = 1321N1 stably expressing GPR17; setting = fitted at highest concentration; scale = higher = stronger inhibition; Emax = 87.5 ± 12.7%
